Results gathered from unrelated publications.
Every numbered part comes from another study and shows a few of its results, in no order. Substitutions count along the parent as printed.

Series 1
Target: Interferon regulatory factor 5, full length, phosphomimetic (IRF5, Homo sapiens, UniProt Q13568-2, residues 1-514, K96S/S451D/S453D/S456D/S462D)
Technique: protein-binding microarray
Form: double-stranded DNA, one strand shown
Matrix: in vitro
Tested at: 250 nM
Notes: 60-bp whole probe
Together with: salmon DNA 0.4 mg/ml
Reference: random background probes
Reading: higher = stronger binding
Endpoint: log fluorescence
All sequences stand within: GCCTAGCAC … GTCTTGATTCGCTTGACGCTGCTG
ATTGCTTCCTCTTTTTTGTTGTGCTAG: 1.02 z-score
TCATTAATAAGGTTTCCAACTGTGCTA: 0.448 z-score
GACGGTAACCTTCTCCTGACGTGCTAG: -0.13 z-score
GACGGTATCGACTTTCTGGACGTGCTA: 2.88 z-score
TCAATCTTCACTCTTAATTAGTGCTAG: 1.02 z-score
CCCCCAATCTCTCTTCACATGTGCTAG: -0.109 z-score
GACGGAATCGACTATCGGGACGTGCTA: 1.97 z-score
TTAGGTTTCGACTATAGGTTAGTGCTA: 7.32 z-score

Series 2
Target: Histone acetyltransferase KAT6A, winged helix 1, GST fusion (KAT6A, Homo sapiens, UniProt Q92794, residues 1-85)
Technique: protein binding microarray
Form: double-stranded DNA, one strand shown
Matrix: in vitro
Tested at: not given
Notes: 8-mer, flanks averaged, mean of 2 arrays, mostly near background
Reference: not given
Reading: higher = stronger binding
Endpoint: E-score
Target sequence (chain): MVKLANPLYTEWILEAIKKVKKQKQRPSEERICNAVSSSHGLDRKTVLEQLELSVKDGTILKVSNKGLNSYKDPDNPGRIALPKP
CGTTTCGA: -0.0584
AAACTCCG: -0.0785
TAACCCGA: 0.174
TAGCGAAA: 0.0144
AAATATGA: -0.282
ACCGCCGC: 0.435
GCAATGAA: -0.0521

Series 3
Target: CCND1, cyclin fold, Cln2 fusion (human)
Technique: yeast growth competition, sequencing
Matrix: yeast
Notes: weak parent motif
Reference: not given
Reading: higher = stronger binding
Endpoint: normalised enrichment score
Starting sequence: WEE1 docking peptide (human); HKTFRKLRLFDTP
F10Y: -1.15
K6Q: 0.212
T3G: 0.519
R5W: 0.519

Further values, each from its own experiment
PhoQ, residues 284 288 289 292 302 303 STVVAA
fold induction (PhoP, residues 12 14 15 18 19 TPWLV (Escherichia coli, UniProt P23836); Sort-seq, refers to: YFP reporter; E. coli; PhoQ-PhoP variant library, together with: 10 µM Mg2+; reference: high Mg2+ state, higher = stronger signaling): 1.39

Excerpt of the above (series 1):
CCCCCAATCTCTCTTCACATGTGCTAG: -0.109 z-score
TCAATCTTCACTCTTAATTAGTGCTAG: 1.02 z-score
